Measured values of several laboratories.
Protocols differ between the studies behind these lines.

CN1CC[C@@H](c2c(O)cc(O)c3c(=O)cc(-c4ccc(C(F)(F)F)cc4Cl)oc23)[C@@H]1CO — patients with adverse event (refers to: Epistaxis; relapsed AML; oral, 100 mg, grade 3-4, intermittent dosing): 0%
Cc1cc(OCCOCCC(F)(F)P(=O)(O)O)ccc1CCc1cnc2c(N)nc3cc(CCC(=O)O)ccc3c2c1 — patients with non-serious AE (refers to: fatigue; adults with advanced solid tumours; dose not given, by treatment group, all grades): 9.5%
CO[C@H]1C[C@@H]2CC[C@@H](C)[C@@](O)(O2)C(=O)C(=O)N2CCCC[C@H]2C(=O)O[C@H]([C@H](C)C[C@@H]2CC[C@@H](OC(=O)NCCOCCOCCOCCOCCOCCOCCOCCOCCC(=O)N3CCc4cc(Cn5nc(-c6ccc7oc(N)nc7c6)c6c(N)ncnc65)ccc4C3)[C@H](OC)C2)C[C@@H](O)[C@H](C)/C=C(\C)[C@@H](O)[C@@H](OC)C(=O)[C@H](C)C[C@H](C)/C=C/C=C/C=C/1C — patients with AE (refers to: grade ≥3 treatment-related rash; patients with advanced solid tumours; intravenous, dose not given, all patients, weekly): 4%
C=CCNc1c(O)cc2c(O)c1C[C@@H](C)C[C@H](OC)[C@H](O)[C@@H](C)/C=C(\C)[C@H](OC(N)=O)[C@@H](OC)/C=C\C=C(/C)C(=O)N2 — patients with infusion site pain (unresectable or metastatic STS, GIST, other; intravenous, 500 mg/m^2): 43%
O=C1Nc2cc3[nH]nc(-c4ccncc4)c3cc2CN1Cc1ccccc1 — patients with TEAE (refers to: Fatigue; patients with advanced solid tumours; intravenous, dose not given, all schedules): 35%
CCN(CCO)CCCC(C)Nc1ccnc2cc(Cl)ccc12 (centres unmarked) — patients with adverse event (refers to: Constipation grade 1; newly diagnosed glioblastoma patients; oral, 800 mg/dose, with radiotherapy and temozolomide): 33%
C[C@@H]1OC(=O)NN=C1c1ccc(-c2ccc(F)cc2)c(C(F)(F)F)c1 — patients with non-cardiac chest pain (patients, phase I trial; oral, dose not given, all arms, worst grade 1): 20%
Cc1ncccc1-c1nc2cc(C(=O)NCCCc3ccccc3)ccc2o1 — maximum response (Vero-E6; CellTiter-Glo ATP; 72 h, second round 5-point; baseline: DMSO 0%, hyamine -100%, more negative, more toxic): -10.8%
N[C@@H]1c2ccccc2OC12CCN(c1cnc3c(N4CCCc5ncccc54)n[nH]c3n1)CC2 — patients with grade ≥3 TEAE (advanced solid tumour patients; oral, 60 mg once daily): 40%
Cc1noc2c(NC3CCOCC3)cc(-c3cccc(C(F)(F)F)c3)nc12 — cytotoxicity efficacy (Vero-E6; CellTiter-Glo ATP; concentration not given, 72 h, first round 5-point; baseline: DMSO 0%, hyamine -100%, more negative, more toxic): -21.7%
CC(=O)c1c(C)c2cnc(Nc3ccc(C4CCN(CCS(C)(=O)=O)CC4)cn3)nc2n(C2CCCC2)c1=O — patients with anaemia (HR+/HER2- advanced breast cancer patients; oral, dose not given, grade 3/4,, sample A patients): 4.9%
